Assay results of several laboratories.
Every numbered part comes from another study and shows a few of its results, in no order. Changes are numbered by the printed parent chain.

Series 1
Target: FOSL2, bZIP domain (human)
Method: DHFR protein complementation
Sample: yeast
Setting: single substitutions, most at no-binding floor
Reference: wild-type JUN-FOS pair
Reading: higher = stronger binding
Endpoint: binding fitness
Parent: JUN, bZIP domain (human); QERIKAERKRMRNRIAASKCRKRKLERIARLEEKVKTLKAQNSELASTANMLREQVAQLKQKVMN; partner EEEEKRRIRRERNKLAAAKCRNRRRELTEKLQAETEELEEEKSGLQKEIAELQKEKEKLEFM
R30P: -0.0046 natural log
A29R: 0.000588 natural log
A49T: -0.407 natural log
K39L: -0.399 natural log
E54W: -0.184 natural log
V35T: -0.168 natural log
R53C: -0.762 natural log
I28S: -0.172 natural log
Q41F: -0.708 natural log
R30N: 0.0299 natural log
L38P: -1.13 natural log
R30L: 0.149 natural log
E32A: 0.293 natural log
N42E: -1.1 natural log
A49W: -0.486 natural log
L45S: -0.957 natural log
A29I: 0.0832 natural log
E44Y: -0.227 natural log
I28A: -0.142 natural log
A49S: -0.35 natural log
T37W: 0.0356 natural log
K39A: -0.354 natural log
Q55S: -0.118 natural log

Series 2
Target: Interferon regulatory factor 5, full length, phosphomimetic (IRF5, Homo sapiens, UniProt Q13568-2, residues 1-514, S451D/S453D/S456D/S462D)
Method: protein-binding microarray
Molecule type: double-stranded DNA, one strand shown
Sample: in vitro
Concentration: 940 nM top
Setting: 60-bp whole probe
Added: salmon DNA 0.4 mg/ml
Reference: random background probes
Reading: higher = stronger binding
Endpoint: fitted relative affinity
Constant ends, left off below: GCCTAGCAC … GTCTTGATTCGCTTGACGCTGCTG
TTAGATTTCAGTTTCGGTTAGTGCTAG: 9.74 z-score
TTAGATATCGGTTTTCGATTAGTGCTA: 1.75 z-score
GACGGTATCGCGTATCGGGACGTGCTA: 1.98 z-score
TCAGATTTCAGACTGGATTAGTGCTAG: 0.0132 z-score
CACATTGTGCAATCTTAATAAGTGCTA: -0.123 z-score
TATTGTGTCAACTTTCTCTGCGTGCTA: 0.116 z-score
AACGGTCTCCTACTGCTGACGTGCTAG: -0.00428 z-score
TTAGATTACAGTATCGATTAGTGCTAG: 3.92 z-score
TTAGATATCCGGTATCGATTAGTGCTA: 4.18 z-score
GACGACATCAGTATCGAGACGTGCTAG: 1.84 z-score
GACGATTTCGGGTTTCGGGACGTGCTA: 3.24 z-score
TAAGGTTTCGGGACTGGGTTAGTGCTA: 5.32 z-score
GACGATTTCAGTTTCGTGACGTGCTAG: 2.58 z-score
CCAGATTTCCCCACCATCTAGTGCTAG: 0.803 z-score
TCACTGCTACCCTCTGAAACTGTGCTA: 0.671 z-score
CAAACACTAGTTTTCATTTTGTGCTAG: 0.409 z-score
TTAGAACTGAGAGTGGATTAGTGCTAG: -0.29 z-score
TGGCAGCATTCTTGGAAATCGTGCTAG: -0.675 z-score
TAAGATCTCAGACTGGATTAGTGCTAG: -0.569 z-score
GACGGTTTCGGTCTCGGGACGTGCTAG: 13.8 z-score
GACGGCATCGGTATCGGGACGTGCTAG: 1.29 z-score
GACGAACCGAGTATCGAGACGTGCTAG: 1.55 z-score
TAAGGTTTCGGGTTTCGGTTAGTGCTA: 9.12 z-score

Series 3
Target: RNA binding protein fox-1 homolog 2, RRM domain, GST-SBP tag (RBFOX2, Homo sapiens, UniProt O43251-10, residues 100-194)
Method: RNA Bind-n-Seq
Molecule type: RNA
Sample: in vitro
Concentration: 365 nM
Setting: natural RNA segment, single round, ends assumed
Reference: no-protein control
Reading: higher = stronger binding
Endpoint: RBNS enrichment (R)
Constant ends, left off below: GGGAGUUCUACAGUCCGACGAUC … UGGAAUUCUCGGGUGCCAA
Residues (chain): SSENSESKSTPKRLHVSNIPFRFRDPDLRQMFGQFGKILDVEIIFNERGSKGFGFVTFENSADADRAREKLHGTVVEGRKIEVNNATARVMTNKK
UUUGCACUUACAAAAUCAUGUAAAUAUGUCACAUUUUGUUUAACAUUAUUUUUCCAAGUGUUUAGGUAAUAAUGUAUUACUUUGAAUUCAGAUUAAUGUUCUACUACUUG: 0.321
AAUUCUUAGCAUAAUGACGGCCUUGGAUUGUCUGACCUCAGUAGCUAUUAAAUAACAUCGAGUAACAUCUGCAUCAGGCCCUCAGAAUAUACAGUUGAGUUGGGAGUAAA: 5.42
UCCCCAACCCCCGACCCCACAAACAGGGCCUCUGUAAUCCUCCAGCUAACUUCCUACAAACAUCUGCCUGGAAGAUUAGUAGAAUCCUAAUUCUAGGCUGGAAUGAGCUU: 0.376
UAGGGUUAUGUCACCAACUUGCAGCCUGAGACACUUGUUUUAAAAAGCUCAGUGUUUUAUUUCAGUAAAAAUUAUUUGGUCAUAAAUUUUGGGAAGAACUGAUUUCUUUU: 0.615
CAAGUUUUUCUAAAUAAAUGUAACUUUUCACAAGAGUCAACAUUAAAAAAUAAAUUAUUUAAGAACAGAUUGUGAUGUUUUCAAUUGAUGAAUGCUGAAAGAAAAAGAAA: 1.25
CACAGGGAGGGCAGGCACCUGGAGGCAGGAGCUGACAGCAGAGGCCAGAGAGGAGAGCCACUUACUGGCUUGUUCAGCUGCUUUCUUACAGAACAUAGCCUGCCAGCUCA: 0.417
GCUCGAAUGGAAAUGUUCUUGUUUUUUACAUCAUUACUUCAGCAAUUUCAUUUGCAUUUUCCACAUGAACUAGUUCCAAAUCUGAAGCCCAGGUUGGGCAUGACAUUACA: 0.599
CCAGGGCAAUGACAGCCAUUCUUGUCUUAGGGAUUAUGGAUCGGGGUAUGAAGUGUGCACACGCAGCCCAACAACGGGCAGUGGUCUCUGUGCUCCUAGGCAUCCAGCAC: 0.404
ACCCUCUUCUCCCGGUCCCAUCUUCUGAGAGGGCUUCUCAGCCUGGAAACUAUGGAAACAGCAUCAAAGAGAAAGGAAUGUGGGGGGUUUCCGCUGCCCCCCACCCCCAG: 0.549
UUUGUUGUUGUUGUUUUGUUAGCUUUCCUACUUCCACUGAGUAGCAUUUUGUAGAAUAAAAUUAAUCAAGAACAAAGAGCUCGUGAUGGUUCCUUCCCUGUCGCCACCUU: 0.322
AUUCAAGUUGUGUCUGAAAAUAUCUCUUGUGCUUUUUUGAUUUUGCUGACUUUAAAAGGAUUAAUCUGGGCAGACAUUAUGUAAAAGAAAGGUUGCGUUUAAUAUAUUUU: 1.14
UGUGGAGGUGACUCACAGCAGACUGACAGUGGUCAGGCUGAGCUUUCUGCUAAGGUGGUGAGGUCGCCAACACUGGCAUGUCUCGGUAGUGGUUUGGGCAAAUUUCUGCA: 3.82

Series 4
Target: CCND2, cyclin fold, Cln2 fusion (human)
Method: yeast growth competition, sequencing
Sample: yeast
Setting: weak parent motif
Reference: not given
Reading: higher = stronger binding
Endpoint: normalised enrichment score
Parent: CDC25A docking peptide (human); PPHRRRLLFACSP
H3V: 0.534
R6I: 0.0347
P2I: 0.0815
P2N: 0.0799
L7S: -0.0065
A10F: 0.149
C11S: 0.0574
L8S: -0.0445
S12D: -0.0552
P13C: 0.436
P1K: 0.619
S12Y: 0.106
R6M: 0.416
P1S: 0.0658
R4K: 0.153
P2T: 0.542
P2L: -0.112
S12W: 0.153
A10W: 0.0215
P1N: 0.112
P13E: -0.0792
H3W: 0.109
R4A: 0.101
H3D: 0.57
P1T: -0.014

Series 5
Target: Sal-like protein 4, full length isoform B (SALL4, Homo sapiens, UniProt Q9UJQ4-2, residues 1-616)
Method: universal PBM
Molecule type: double-stranded DNA, one strand shown
Sample: in vitro
Concentration: not given
Setting: 8-mer, flanks averaged, mean of replicates
Reading: higher = stronger binding
Endpoint: E-score
Residues (chain): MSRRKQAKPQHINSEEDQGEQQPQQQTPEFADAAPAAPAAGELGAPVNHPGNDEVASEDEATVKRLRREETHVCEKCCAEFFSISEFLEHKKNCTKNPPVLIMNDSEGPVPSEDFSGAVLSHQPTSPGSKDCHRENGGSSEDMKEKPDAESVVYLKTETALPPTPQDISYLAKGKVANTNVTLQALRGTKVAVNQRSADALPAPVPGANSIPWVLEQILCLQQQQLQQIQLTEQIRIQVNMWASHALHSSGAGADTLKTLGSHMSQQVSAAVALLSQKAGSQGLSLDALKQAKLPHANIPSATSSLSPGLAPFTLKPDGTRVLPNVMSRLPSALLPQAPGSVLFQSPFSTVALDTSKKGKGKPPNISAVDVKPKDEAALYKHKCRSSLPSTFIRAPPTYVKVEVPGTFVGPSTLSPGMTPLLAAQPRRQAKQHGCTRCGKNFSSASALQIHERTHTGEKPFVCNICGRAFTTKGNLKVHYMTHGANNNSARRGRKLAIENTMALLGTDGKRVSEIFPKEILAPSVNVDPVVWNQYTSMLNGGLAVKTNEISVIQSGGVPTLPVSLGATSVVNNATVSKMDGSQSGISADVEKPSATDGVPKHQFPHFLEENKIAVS
CATGATTC: -0.0226
CCTTTTCC: 0.0337
CACAGCTG: -0.298
CACTCAAG: -0.171
GGCGGTGA: -0.221
ATAACGCG: 0.00967
ATCTCCAT: 0.0749
CAATCGCC: -0.104
ACCATCAA: 0.132
ATAACCCC: 0.0398
AAAGCAGC: -0.151
TCCGACAA: 0.0669
CATGTACA: 0.179
AAATCCGC: -0.225
ATCTAGAC: -0.055
ACCGCGGG: -0.368
AGCCCACT: -0.239
ACGCTGAA: -0.0956
AGAGTTAG: 0.0208
GCGGTAAA: 0.00357
CCATTTCC: 0.125
AAGCCCAG: -0.195
CGCCAACG: -0.314
AGACTGCT: -0.0533

Excerpt of the above (series 3):
UUUGCACUUACAAAAUCAUGUAAAUAUGUCACAUUUUGUUUAACAUUAUUUUUCCAAGUGUUUAGGUAAUAAUGUAUUACUUUGAAUUCAGAUUAAUGUUCUACUACUUG: 0.321
AAUUCUUAGCAUAAUGACGGCCUUGGAUUGUCUGACCUCAGUAGCUAUUAAAUAACAUCGAGUAACAUCUGCAUCAGGCCCUCAGAAUAUACAGUUGAGUUGGGAGUAAA: 5.42
UCCCCAACCCCCGACCCCACAAACAGGGCCUCUGUAAUCCUCCAGCUAACUUCCUACAAACAUCUGCCUGGAAGAUUAGUAGAAUCCUAAUUCUAGGCUGGAAUGAGCUU: 0.376
UAGGGUUAUGUCACCAACUUGCAGCCUGAGACACUUGUUUUAAAAAGCUCAGUGUUUUAUUUCAGUAAAAAUUAUUUGGUCAUAAAUUUUGGGAAGAACUGAUUUCUUUU: 0.615
CAAGUUUUUCUAAAUAAAUGUAACUUUUCACAAGAGUCAACAUUAAAAAAUAAAUUAUUUAAGAACAGAUUGUGAUGUUUUCAAUUGAUGAAUGCUGAAAGAAAAAGAAA: 1.25
CACAGGGAGGGCAGGCACCUGGAGGCAGGAGCUGACAGCAGAGGCCAGAGAGGAGAGCCACUUACUGGCUUGUUCAGCUGCUUUCUUACAGAACAUAGCCUGCCAGCUCA: 0.417
GCUCGAAUGGAAAUGUUCUUGUUUUUUACAUCAUUACUUCAGCAAUUUCAUUUGCAUUUUCCACAUGAACUAGUUCCAAAUCUGAAGCCCAGGUUGGGCAUGACAUUACA: 0.599
CCAGGGCAAUGACAGCCAUUCUUGUCUUAGGGAUUAUGGAUCGGGGUAUGAAGUGUGCACACGCAGCCCAACAACGGGCAGUGGUCUCUGUGCUCCUAGGCAUCCAGCAC: 0.404
ACCCUCUUCUCCCGGUCCCAUCUUCUGAGAGGGCUUCUCAGCCUGGAAACUAUGGAAACAGCAUCAAAGAGAAAGGAAUGUGGGGGGUUUCCGCUGCCCCCCACCCCCAG: 0.549
UUUGUUGUUGUUGUUUUGUUAGCUUUCCUACUUCCACUGAGUAGCAUUUUGUAGAAUAAAAUUAAUCAAGAACAAAGAGCUCGUGAUGGUUCCUUCCCUGUCGCCACCUU: 0.322
AUUCAAGUUGUGUCUGAAAAUAUCUCUUGUGCUUUUUUGAUUUUGCUGACUUUAAAAGGAUUAAUCUGGGCAGACAUUAUGUAAAAGAAAGGUUGCGUUUAAUAUAUUUU: 1.14
UGUGGAGGUGACUCACAGCAGACUGACAGUGGUCAGGCUGAGCUUUCUGCUAAGGUGGUGAGGUCGCCAACACUGGCAUGUCUCGGUAGUGGUUUGGGCAAAUUUCUGCA: 3.82
